Assay results of several laboratories.
Bridges are numbered along the chain shown (N, C = ends). Where no end group is shown, it is not given here. The star is where a group is joined.
Mapk14: Mapk14, pT180, pY182 (Rattus norvegicus, UniProt P70618)
Sequence of UniProt P70618 (whole entry, looked up): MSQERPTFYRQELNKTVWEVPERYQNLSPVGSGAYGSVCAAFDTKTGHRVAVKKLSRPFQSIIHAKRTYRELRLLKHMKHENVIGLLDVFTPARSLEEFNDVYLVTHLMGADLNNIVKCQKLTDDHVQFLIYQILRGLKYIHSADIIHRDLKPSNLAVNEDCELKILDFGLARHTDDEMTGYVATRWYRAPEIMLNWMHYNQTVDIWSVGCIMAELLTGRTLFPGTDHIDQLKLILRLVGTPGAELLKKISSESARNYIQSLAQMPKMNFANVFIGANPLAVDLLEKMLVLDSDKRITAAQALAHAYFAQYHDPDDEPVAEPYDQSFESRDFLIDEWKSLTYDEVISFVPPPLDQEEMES
RPLP2: RPLP2 (Homo sapiens, UniProt P05387)
Sequence of UniProt P05387 (whole entry, looked up): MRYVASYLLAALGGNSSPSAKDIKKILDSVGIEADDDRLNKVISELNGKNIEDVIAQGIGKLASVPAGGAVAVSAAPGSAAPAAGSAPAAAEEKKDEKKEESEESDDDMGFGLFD
B1: UGT1A9 (Homo sapiens, UniProt O60656); chain GKLLVVPMDGSHWFTMRSVVEKLILRGHEVVVVMPEVSWQLGRSLNCTVKTYSTSYTLEDLDREFKAFAHAQWKAQVRSIYSLLMGSYNDIFDLFFSNCRSLFKDKKLVEYLKESSFDAVFLDPFDNCGLIVAKYFSLPSVVFARGILCHYLEEGAQCPAPLSYVPRILLGFSDAMTFKERVRNHIMHLEEHLLCHRFFKNALEIASEILQTPVTEYDLYSHTSIWLLRTDFVLDYPKPVMPNMIFIGGINCHQGKPLPMEFEAYINASGEHGIVVFSLGSMVSEIPEKKAMAIADALGKIPQTVLWRYTGTRPSNLANNTILVKWLPQNDLLGHPMTRAFITHAGSHGVYESICNGVPMVMMPLFGDQMDNAKRMETKGAGVTLNVLEMTSEDLENALKAVINDKSYKENIMRLSSLHKDRPVEPLDLAVFWVEFVMRHKGAPHLRPAAHDLTWYQYHSLDVIGFLLAVVLTVAFITFKCCAYGYRKCLGKKGRVKKAHKSKTH
Sequence of UniProt P12259 (whole entry, unmodified, looked up): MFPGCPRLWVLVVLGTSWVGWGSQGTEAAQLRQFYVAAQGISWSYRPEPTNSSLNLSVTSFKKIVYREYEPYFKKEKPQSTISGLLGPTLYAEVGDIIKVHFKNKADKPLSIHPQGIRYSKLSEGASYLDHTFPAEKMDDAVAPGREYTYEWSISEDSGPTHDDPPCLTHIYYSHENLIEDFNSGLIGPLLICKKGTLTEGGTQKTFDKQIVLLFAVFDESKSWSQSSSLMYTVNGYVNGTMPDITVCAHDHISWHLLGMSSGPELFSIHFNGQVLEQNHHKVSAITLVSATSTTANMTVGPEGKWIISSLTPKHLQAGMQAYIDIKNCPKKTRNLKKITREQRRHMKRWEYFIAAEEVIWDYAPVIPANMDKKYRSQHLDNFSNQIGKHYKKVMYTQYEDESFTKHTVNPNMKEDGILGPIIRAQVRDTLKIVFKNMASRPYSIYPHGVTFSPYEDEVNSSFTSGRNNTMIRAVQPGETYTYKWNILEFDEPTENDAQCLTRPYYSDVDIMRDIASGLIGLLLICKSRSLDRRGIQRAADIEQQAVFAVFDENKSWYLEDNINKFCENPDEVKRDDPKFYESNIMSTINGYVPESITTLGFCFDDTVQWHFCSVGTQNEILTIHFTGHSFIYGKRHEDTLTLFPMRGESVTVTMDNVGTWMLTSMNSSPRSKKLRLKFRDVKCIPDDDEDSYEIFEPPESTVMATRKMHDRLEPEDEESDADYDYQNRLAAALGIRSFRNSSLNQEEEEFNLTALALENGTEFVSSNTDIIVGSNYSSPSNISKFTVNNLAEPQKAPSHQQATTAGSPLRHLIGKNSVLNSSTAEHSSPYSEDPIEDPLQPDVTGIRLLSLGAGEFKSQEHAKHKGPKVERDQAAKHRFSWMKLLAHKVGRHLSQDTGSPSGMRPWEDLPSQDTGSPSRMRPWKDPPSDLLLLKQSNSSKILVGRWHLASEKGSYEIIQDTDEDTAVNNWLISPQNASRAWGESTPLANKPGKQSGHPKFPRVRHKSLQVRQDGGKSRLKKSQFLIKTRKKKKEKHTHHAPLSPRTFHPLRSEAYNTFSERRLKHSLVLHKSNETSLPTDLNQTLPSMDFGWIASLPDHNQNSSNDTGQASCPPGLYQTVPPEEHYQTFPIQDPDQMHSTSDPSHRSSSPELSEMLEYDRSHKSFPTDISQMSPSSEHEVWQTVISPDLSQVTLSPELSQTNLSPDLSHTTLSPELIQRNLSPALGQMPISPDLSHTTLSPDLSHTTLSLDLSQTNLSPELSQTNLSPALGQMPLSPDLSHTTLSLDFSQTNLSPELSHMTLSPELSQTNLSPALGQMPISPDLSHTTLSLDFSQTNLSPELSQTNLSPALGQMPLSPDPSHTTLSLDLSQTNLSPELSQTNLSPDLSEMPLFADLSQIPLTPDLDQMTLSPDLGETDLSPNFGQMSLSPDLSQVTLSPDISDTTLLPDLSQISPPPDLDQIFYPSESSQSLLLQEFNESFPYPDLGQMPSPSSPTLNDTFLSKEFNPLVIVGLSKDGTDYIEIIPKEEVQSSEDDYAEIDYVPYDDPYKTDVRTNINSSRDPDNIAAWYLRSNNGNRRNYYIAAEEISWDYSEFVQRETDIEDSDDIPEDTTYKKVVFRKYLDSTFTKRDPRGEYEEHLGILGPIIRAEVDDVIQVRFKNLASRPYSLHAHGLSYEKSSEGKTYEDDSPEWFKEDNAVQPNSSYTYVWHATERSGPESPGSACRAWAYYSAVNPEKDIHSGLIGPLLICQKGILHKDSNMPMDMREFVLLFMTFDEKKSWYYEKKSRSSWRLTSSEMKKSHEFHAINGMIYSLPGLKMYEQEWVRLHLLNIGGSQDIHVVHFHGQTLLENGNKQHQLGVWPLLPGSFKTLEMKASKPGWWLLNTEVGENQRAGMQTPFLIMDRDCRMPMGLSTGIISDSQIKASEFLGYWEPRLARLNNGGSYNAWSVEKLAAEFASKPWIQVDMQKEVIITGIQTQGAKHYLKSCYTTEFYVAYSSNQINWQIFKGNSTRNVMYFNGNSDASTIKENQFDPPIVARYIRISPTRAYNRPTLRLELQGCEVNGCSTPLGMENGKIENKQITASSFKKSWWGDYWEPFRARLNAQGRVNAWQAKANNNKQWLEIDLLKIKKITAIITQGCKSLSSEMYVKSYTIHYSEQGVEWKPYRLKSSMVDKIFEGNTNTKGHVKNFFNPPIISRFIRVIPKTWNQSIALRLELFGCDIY
Sequence of UniProt P07724 (whole entry, looked up): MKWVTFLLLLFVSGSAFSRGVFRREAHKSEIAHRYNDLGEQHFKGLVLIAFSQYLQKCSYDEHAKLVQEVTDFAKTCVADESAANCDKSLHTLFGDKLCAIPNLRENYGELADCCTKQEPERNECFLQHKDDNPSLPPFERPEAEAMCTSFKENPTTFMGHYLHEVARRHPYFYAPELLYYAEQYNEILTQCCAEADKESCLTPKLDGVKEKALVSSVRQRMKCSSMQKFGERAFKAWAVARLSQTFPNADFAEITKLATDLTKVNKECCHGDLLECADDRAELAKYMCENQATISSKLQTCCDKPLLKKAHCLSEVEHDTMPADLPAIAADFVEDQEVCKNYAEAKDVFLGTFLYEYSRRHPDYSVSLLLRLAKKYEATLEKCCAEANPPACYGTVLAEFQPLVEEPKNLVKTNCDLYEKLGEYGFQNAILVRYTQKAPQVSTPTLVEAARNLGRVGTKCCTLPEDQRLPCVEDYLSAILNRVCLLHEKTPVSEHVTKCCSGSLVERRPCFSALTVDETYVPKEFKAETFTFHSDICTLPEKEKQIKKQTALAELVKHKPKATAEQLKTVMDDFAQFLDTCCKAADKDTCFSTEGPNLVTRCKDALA
Sequence of UniProt Q9H6P5 (whole entry, looked up): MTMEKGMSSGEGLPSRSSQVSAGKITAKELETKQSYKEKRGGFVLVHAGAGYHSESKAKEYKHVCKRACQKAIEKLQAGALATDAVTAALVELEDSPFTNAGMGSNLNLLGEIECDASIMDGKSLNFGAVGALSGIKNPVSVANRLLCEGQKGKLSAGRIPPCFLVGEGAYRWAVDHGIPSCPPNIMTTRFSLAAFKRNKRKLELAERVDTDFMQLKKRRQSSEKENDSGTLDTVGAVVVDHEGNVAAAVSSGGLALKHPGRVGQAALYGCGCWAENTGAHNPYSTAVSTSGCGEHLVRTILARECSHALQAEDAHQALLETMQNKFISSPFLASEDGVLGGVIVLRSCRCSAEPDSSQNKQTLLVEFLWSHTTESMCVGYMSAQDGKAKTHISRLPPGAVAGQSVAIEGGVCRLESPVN

`YASPSRRRKLSLNIPI (RASGRF1 D-site peptide (Homo sapiens))` has an IC50 of 2400 nM (Mapk14; kinase activity, inhibitor, competitive kinase inhibition assay; peptide; with: ATP 1 mM).
The Vmax of `B1 (UGT1A9)` is reported as 0.00143 µmol/min/mg (Cc1ccc(O)cc1; steady-state kinetics; pH 7.4, 37 °C).
For `YAGEQRRRRLELQLQE (MYH14 D-site peptide (Homo sapiens))`, the IC50 was 35000 nM (Mapk14; kinase activity, inhibitor, competitive kinase inhibition assay; peptide; with: ATP 1 mM).
`HSPA1A (Homo sapiens, UniProt P0DMV8)` gave an IC50 of 670 nM (MAPT (Homo sapiens, UniProt P10636-6); tau aggregation, ThS fluorescence, inhibitor; with: ARA).
The IC50 of `Trichosanthin fragment R174A (Trichosanthes kirilowii)` is reported as 0.16 nM (RPLP2; in vitro translation inhibition; rabbit reticulocyte lysate).
The IC50 of `YAKQVRKKEHKLKITP (AFAP1L2 D-site peptide (Homo sapiens))` is reported as 40000 nM (Mapk14; kinase activity, inhibitor, competitive kinase inhibition assay; peptide; with: ATP 1 mM).
With `Trichosanthin fragment K173A/R174A/K177A (Trichosanthes kirilowii)` the IC50 was 0.5 nM (RPLP2; in vitro translation inhibition; rabbit reticulocyte lysate).
`RLIEDICLPRWGCLWEDDK(IRDye800CW)-NH2 (cyclic albumin-binding peptide; disulfide 7-13; Cys7-Cys13 disulfide, IRDye800CW on Lys, C-terminal amide; IRDye800CW = CC1(C)C(/C=C/C2=C(Oc3ccc(S(=O)(=O)O)cc3)C(=C/C=C3/N(CCCCS(=O)(=O)O)c4ccc(S(=O)(=O)O)cc4C3(C)C)/CCC2)=[N+](CCCCCC(=O)*)c2ccc(S(=O)(=O)[O-])cc21)` has an IC50 of 44.8 nM (Alb (Mus musculus, UniProt P07724); competition with ligand, competitive plate binding assay; peptide, coated plate).
`TFPI (Homo sapiens, UniProt P10646-1)` gave an IC50 of 29.7 nM (F5 B-domain deleted 811-1490 R709Q/R1545Q (UniProt P12259); prothrombinase inhibition, inhibitor; with: dalteparin 1 u/mL).
With `Ac-ISQLD-vs (KMT2A residues 2714-2718, N-acetyl, C-terminal vinyl sulfone; reading uncertain; also: printed as Ac-Ile-Ser-Gln-Leu-Asp-vs; N-acetyl, C-terminal vinyl sulfone; vs = not defined here)` the IC50 was 29400 nM (TASP1 (Homo sapiens, UniProt Q9H6P5); Taspase1 cleavage inhibition, inhibitor, FRET reporter assay; peptide; added simultaneously with substrate).
`Trichosanthin fragment K177A (Trichosanthes kirilowii)` has an IC50 of 0.09 nM (RPLP2; in vitro translation inhibition; rabbit reticulocyte lysate).

A few entries again:
The Vmax of `B1 (UGT1A9)` is reported as 0.00143 µmol/min/mg (Cc1ccc(O)cc1; steady-state kinetics; pH 7.4, 37 °C).
